# Measurements from different studies.
# Parts stem from different laboratories: compare values within a part only. Values joined by “and” are separate records of one study, mostly repeats; a detail may differ.

# Set 1 — method: Incucyte 3D growth; tested at: 30 µM; reading: higher = more growth
# Compound: CC(C)(C(=O)O)[C@H](NC(=O)Cc1cccc(I)c1)c1ccc2oc(=O)[nH]c2c1
cell line,conditions,spheroid area
KP-4,36 h,1.35e+07 a.u. and 1.46e+07 a.u. and 1.36e+07 a.u. and 1.1e+07 a.u. and 1.3e+07 a.u. and 1.23e+07 a.u.
IPC-298,288 h,4.21e+07 a.u. and 3.7e+07 a.u. and 2.78e+07 a.u. and 3.4e+07 a.u. and 4.24e+07 a.u. and 2.74e+07 a.u.
NCI-H358,144 h,7.71e+06 a.u. and 7.8e+06 a.u. and 5.93e+06 a.u. and 5.44e+06 a.u. and 5.08e+06 a.u. and 5.18e+06 a.u.
A375,282.52 h,1.73e+08 a.u. and 1.84e+08 a.u. and 1.75e+08 a.u. and 2e+08 a.u. and 1.77e+08 a.u. and 2.02e+08 a.u.

# Set 2 — organism: Sarcocystis neurona; observed: parasite growth; tested at: 10 µM
SMILES,inhibition
C[C@@H]1C[C@H]2[C@@H]3CCC4=CC(=O)C=C[C@]4(C)[C@@]3(F)[C@@H](O)C[C@]2(C)[C@H]1C(=O)CO,6.9%
Cc1ccc(N(CC2=NCCN2)c2cccc(O)c2)cc1,-19.4%
CC(=O)OCC(=O)[C@@]1(O)CC[C@H]2[C@@H]3CCC4=CC(=O)CC[C@]4(C)[C@H]3C(=O)C[C@@]21C,5.1%
COCc1c(C(C)C)nc(C(C)C)c(/C=C/[C@@H](O)C[C@@H](O)CC(=O)O)c1-c1ccc(F)cc1,30.3%
O=c1c(-c2ccccc2)c1-c1ccccc1,60%
COc1cc([C@@H]2c3cc4c(cc3[C@H](O)[C@H]3COC(=O)[C@H]23)OCO4)cc(OC)c1OC,31%

# Set 3 — action: degrader; time: 24 h
# SMILES: C[C@@H]1CN(c2ccc(-c3cc(C(=O)NCCOCCOCCOCCOCCNC(=O)Cn4cc(-c5[nH]cc(C(=O)N[C@@H](CC(N)=O)c6ccc(F)c(Cl)c6)c5-c5ccc(Cl)cc5F)cn4)ccc3F)cc2NC(=O)c2c[nH]c(=O)cc2C(F)(F)F)C[C@H](C)N1C
# WDR5/DCAF1: WDR5/DCAF1 (Homo sapiens, UniProt P61964+Q9Y4B6)
target,test,conditions,scale,remaining protein level
WDR5/DCAF1,HiBiT luminescence,3800 nM,,65.1% and 59.2% and 65.6%
WDR5/DCAF1,HiBiT luminescence,2 nM,,106% and 97.3% and 105%
WDR5/DCAF1,HiBiT luminescence,13.3 nM,,98.7% and 90.7% and 101%
"WD repeat-containing protein 5 (WDR5, Homo sapiens, UniProt P61964)","Jess capillary immunoassay, item: WDR5 over vinculin",2 nM,baseline: DMSO,122% and 119% and 93.7%

# Set 4 — cell line: mouse MPNST tumor cells; method: high-content immunofluorescence imaging; item: nuclear SOX9; tested at: 10 µM; time: 12 h; notes: mean of 2 replicates; baseline: DMSO control; reading: higher = more nuclear SOX9
Compound,nuclear SOX9 intensity
N[C@@H](CC(=O)Nc1ccc(Oc2cc(F)c(F)cc2Br)cc1)C(=O)O,104 % of DMSO
Nc1nonc1C(=Nc1ccc(F)c(Cl)c1)NO,103 % of DMSO
CCOC(=O)CSc1nc2c(sc3ccccc32)c(=O)n1CCCN1CCCC1,156 % of DMSO
Cc1noc(C)c1Cn1cc(C#N)c2cc(Oc3ccc(NC(=O)[C@@H]4CCCN4)cc3)ccc21,109 % of DMSO
O=C(O)c1ccccc1C(=O)Nc1ccc(S(=O)(=O)Nc2nccs2)cc1,85.7 % of DMSO

# Set 5 — method: PRP chromatography estimate; matrix: 1,9-decadiene/PBS; pH: 7.4
SMILES,logD
CCC[C@@H]1NC(=O)CSC[C@@H](C(=O)OCC)N(C)C(=O)[C@H](CC(C)C)NC(=O)[C@H](C)N(C)C(=O)[C@@H](CC(C)C)NC(=O)[C@H](C)N(C)C(=O)[C@@H]2CCCN2C(=O)[C@H](CC(C)C)NC(=O)CN(C)C1=O,-0.348
CC(C)C[C@@H]1NC(=O)[C@H](CC(C)C)NC(=O)[C@H](CC(C)C)NC(=O)[C@H](C(C)C)NC(=O)[C@H](C)NC(=O)[C@H](Cc2cscn2)NC(=O)[C@H](CCC(=O)N2CCCC2)NC1=O,-1.93
CC(C)C[C@@H]1NC(=O)[C@H](CCC(=O)N2CCCC2)NC(=O)[C@H](CC(C)C)NC(=O)[C@@H](CCC(=O)N2CCCC2)NC(=O)[C@H](CC(C)C)NC(=O)[C@@H](CC(C)C)NC(=O)[C@H](CC(C)C)NC1=O,-0.332
CCOC(=O)[C@@H]1CSCC(=O)N[C@@H](CC)C(=O)N(C)[C@@H](C)C(=O)N[C@H](CC(C)C)C(=O)N2CCC[C@@H]2C(=O)N(CC)CC(=O)N[C@@H](CC(C)C)C(=O)N(C)[C@H](C)C(=O)N[C@@H](CC(C)C)C(=O)N1C,-0.388
CC(C)C[C@@H]1NC(=O)[C@H](CC(C)C)NC(=O)[C@H](CC(C)C)NC(=O)[C@H](C(C)C)NC(=O)[C@@H](Cc2cscn2)NC(=O)[C@H](C)NC(=O)[C@H](CCC(=O)N2CCCC2)NC1=O,-2.08

# Set 6 — method: competition with immobilised ligand; tested at: 1 µM
# SMILES: Cc1nc(Cc2cccc(C(F)(F)F)c2)sc1-c1ccc(C(N)=O)nc1
target,test,remaining binding [%]
"Ephrin type-B receptor 6 (EPHB6, Homo sapiens, UniProt O15197)",cell-free assay,100
"Casein kinase I isoform gamma-2 (CSNK1G2, Homo sapiens, UniProt P78368)",cell-free assay,82
"Mast/stem cell growth factor receptor Kit (KIT, Homo sapiens, UniProt P10721, T670I/V559D)",cell-free assay,91
"Megakaryocyte-associated tyrosine-protein kinase (MATK, Homo sapiens, UniProt P42679)",cell-free assay,100
"Death-associated protein kinase 2 (DAPK2, Homo sapiens, UniProt Q9UIK4)",cell-free assay,89
"Mitogen-activated protein kinase kinase kinase kinase 3 (MAP4K3, Homo sapiens, UniProt Q8IVH8)",cell-free assay,76
"Protein kinase C delta type (PRKCD, Homo sapiens, UniProt Q05655)",cell-free assay,79
"Tyrosine-protein kinase Yes (YES1, Homo sapiens, UniProt P07947)",cell-free assay,100
"Cyclin-dependent kinase 5 (CDK5, Homo sapiens, UniProt Q00535)",cell-free assay,100
"Epidermal growth factor receptor (EGFR, Homo sapiens, UniProt P00533, del752-759)",cell-free assay,100
"Casein kinase II subunit alpha (CSNK2A1, Homo sapiens, UniProt P68400)",cell-free assay,100
"Ephrin type-B receptor 3 (EPHB3, Homo sapiens, UniProt P54753)",cell-free assay,100
"Tyrosine-protein kinase Tec (TEC, Homo sapiens, UniProt P42680)",binding,100
"Serine/threonine-protein kinase 4 (STK4, Homo sapiens, UniProt Q13043)",cell-free assay,100
"Serine/threonine-protein kinase Nek11 (NEK11, Homo sapiens, UniProt Q8NG66)",cell-free assay,100
"Receptor-interacting serine/threonine-protein kinase 2 (RIPK2, Homo sapiens, UniProt O43353)",cell-free assay,100
"Serine/threonine-protein kinase Nek10 (NEK10, Homo sapiens, UniProt Q6ZWH5)",cell-free assay,100
"BDNF/NT-3 growth factors receptor (NTRK2, Homo sapiens, UniProt Q16620)",cell-free assay,84
"Ribosomal protein S6 kinase alpha-2, C-terminal kinase domain (RPS6KA2, Homo sapiens, UniProt Q15349)",cell-free assay,100
"ALK tyrosine kinase receptor (ALK, Homo sapiens, UniProt Q9UM73)",cell-free assay,99
"Mitogen-activated protein kinase 4 (MAPK4, Homo sapiens, UniProt P31152)",cell-free assay,100
"Mast/stem cell growth factor receptor Kit (KIT, Homo sapiens, UniProt P10721, V559D/V654A)",cell-free assay,83
"Cyclin-dependent kinase 9 (CDK9, Homo sapiens, UniProt P50750)",cell-free assay,100
"Mast/stem cell growth factor receptor Kit (KIT, Homo sapiens, UniProt P10721, L576P)",cell-free assay,89
"Fibroblast growth factor receptor 2 (FGFR2, Homo sapiens, UniProt P21802)",cell-free assay,100

# Other studies, line by line — observed: cell-free assay; tested at: 0.5 µM
# Target: Calcium/calmodulin-dependent protein kinase type 1G (CAMK1G, Homo sapiens, UniProt Q96NX5)
SMILES,remaining signal [%]
CS(=O)(=O)CCNCc1ccc(-c2ccc3ncnc(Nc4ccc(OCc5cccc(F)c5)c(Cl)c4)c3c2)o1,102
C#Cc1cccc(Nc2ncnc3cc(OCCOC)c(OCCOC)cc23)c1,111
